{"data": "Published values collected from several papers", "note": "Lines come from different studies, so protocols differ. “And” joins repeats or separate records; there may be more than shown. ± gives the spread as reported."}
{"SMILES": "COc1cc(Nc2ncc3c(n2)-c2ccc(Cl)cc2C(c2c(F)cccc2OC)=NC3)ccc1C(=O)O", "test system": "patients", "conditions": "oral, dose not given, grade 4, any attribution, together with: pembrolizumab", "quantity": "decreased lymphocyte count incidence", "value": "13%"}
{"SMILES": "FC(F)(F)c1ccc(CNc2ccc(Cc3c[nH]c4ncc(Cl)cc34)cn2)cn1", "assay": "item: Dizziness", "test system": "patients with advanced solid tumours, all cohorts", "conditions": "oral, 1000 mg/day, any grade", "quantity": "treatment-related adverse events", "value": "4%"}
{"SMILES": "CC(C)C[C@H](NC(=O)[C@H](CCc1ccccc1)NC(=O)CN1CCOCC1)C(=O)N[C@@H](Cc1ccccc1)C(=O)N[C@@H](CC(C)C)C(=O)[C@@]1(C)CO1", "assay": "population PK, two-compartment model", "test system": "adult relapsed/refractory DLBCL patients, plasma", "conditions": "intravenous infusion, dose not given, together with: R-ICE", "quantity": "central volume of distribution", "value": "9.37 L"}
{"SMILES": "Cc1cc([C@H]2C[C@H]3[C@@H](C)SC(N)=N[C@@]3(c3ccc(F)cc3F)CO2)on1", "test system": "male 129/SVE mouse, brain", "conditions": "subcutaneous, 50 mg/kg, 7 h", "quantity": "brain concentration", "value": "437 nM"}
{"SMILES": "CC(=O)O[C@H](CC(=O)[O-])C[N+](C)(C)C", "assay": "binding, MIDAS equilibrium dialysis LC-MS", "test system": "A2AR-BRIL thermostabilized", "conditions": "concentration not given", "how to read": "reference: no-protein control", "quantity": "log2 fold change", "value": -0.166}
{"SMILES": "Cc1c(-c2ccc(N3CCc4cccc(C(=O)Nc5nc6ccccc6s5)c4C3)nc2C(=O)O)cnn1CC12CC3(C)CC(C)(C1)CC(OCCNCC[C@H](O)CO)(C3)C2", "test system": "beagle dog, anaesthetised", "conditions": "intravenous infusion, 0.1 mg/kg/min, 135 min", "how to read": "reference: baseline", "quantity": "mean arterial pressure change", "value": "-9 mmHg"}
{"SMILES": "CCOC(=O)[C@H](CCc1ccccc1)N[C@@H](C)C(=O)N1[C@H](C(=O)O)C[C@H]2CCCC[C@@H]21", "test system": "processed human plasma", "conditions": "300 pg/mL, 48 h, 4 °C", "how to read": "reference: nominal", "quantity": "autosampler stability", "value": "95.3 ± 13.9%"}
{"SMILES": "CN(CCC#N)C1CCN(C(=O)Cn2cc(NC(=O)c3cnn4cccnc34)c(-c3cc(Cl)ccc3OC(F)F)n2)CC1", "test system": "human", "conditions": "inhalation, 1 mg single dose", "how to read": "reference: loaded dose", "quantity": "device mouthpiece residue", "value": "3.16%"}
{"SMILES": "COc1cccc(OC)c1-c1cc(C(=O)NC2(C(=O)O)C3CC4CC(C3)CC2C4)nn1-c1ccc(C(=O)N(C)CCCN(C)CCCN(C)C(=O)CN2CCN(CC(=O)[O-])CCN(CC(=O)[O-])CCN(CC(=O)[O-])CC2)cc1C(C)C.[177Lu+3] (centres unmarked)", "test system": "mouse, HT-29 xenograft", "conditions": "24 h post injection, biodistribution", "how to read": "reference: tumour over blood uptake", "quantity": "tumour-to-blood ratio", "value": 299}
{"SMILES": "C=C[C@@](C)(/C=C/c1ccc(O)cc1)CCC=C(C)C", "test system": "rat plasma", "conditions": "1000 ng/mL, 2 weeks, -70 °C, post-preparative stability", "quantity": "accuracy", "value": "97.8%"}
{"SMILES": "O=C(O)CCC(=O)O.[2H]C([2H])([2H])Oc1cc(C)c2[nH]ccc2c1CN1CC[C@@H](C2CC2)C[C@H]1c1ccc(C(=O)O)cc1", "assay": "multiple ascending dose", "test system": "healthy Chinese subjects", "conditions": "125 mg twice daily", "quantity": "subjects with elevated ALT TEAE", "value": "0%"}
{"SMILES": "C[C@@H](N)C1CCN(S(=O)(=O)c2cccc3cnccc23)CC1", "assay": "item: Tachycardia", "test system": "healthy volunteers", "conditions": "250 mg, fasted", "quantity": "TEAE incidence", "value": "0%"}
{"SMILES": "CNC(=O)c1ccc(-c2cnc3ncc(Cc4ccc5ncccc5c4)n3n2)cc1F", "test system": "gastric cancer patients", "conditions": "oral, 600 mg twice daily, all grades RP2D expansion", "quantity": "abdominal distension incidence", "value": "0%"}
{"SMILES": "c1ccc2c(c1)ccc1c3ccccc3ccc21", "test system": "polyethylene-water partitioning", "conditions": "PAH compilation", "how to read": "reference: maximum over minimum K", "quantity": "literature range factor", "value": 3}
{"SMILES": "O=C(Nc1nc2cccc(-c3ccc(CN4CCS(=O)(=O)CC4)cc3)n2n1)C1CC1", "assay": "item: vascular disorders", "test system": "rheumatoid arthritis patients", "conditions": "oral, 75 mg once daily, 4 weeks, any relatedness", "quantity": "treatment-emergent adverse events", "value": "0%"}
{"SMILES": "CC(C)[C@H](C(=O)Nc1ccc(C(=O)NO)cc1)c1ccccc1", "test system": "whole blood", "conditions": "1000 ng/mL, 1 h, 4 °C, stability on ice", "quantity": "accuracy", "value": "112%"}
{"SMILES": "COCc1cc(C(=O)Nc2cc([C@H]3CC[C@@H](OC(=O)NC(C)C)C3)[nH]n2)n(C)n1", "test system": "OVCAR-3 xenograft, NOD/SCID gamma mice, plasma", "conditions": "oral, 50 twice daily, PK/PD study", "quantity": "AUC(0-24h)", "value": "7.05 µM·h"}
{"SMILES": "O=C1NCCc2nc(OCc3cccc(F)c3)ccc21", "assay": "item: skin color", "test system": "Sprague-Dawley rat male", "conditions": "oral, 100 mg/kg, 1 h", "how to read": "direction not given", "quantity": "Irwin test score", "value": 0}
{"SMILES": "Cl.[2H]C([2H])([2H])CC(=O)c1cnc(NC(=O)C2CC2)cc1Nc1cccc(-c2ncn(C([2H])([2H])[2H])n2)c1OC", "assay": "geometric mean", "test system": "human", "conditions": "oral, 10 mg once daily, day 7, fasted, liquid, multiple dose", "quantity": "AUC(0-tau)", "value": "914 ng·h/mL"}
{"SMILES": "CNCCOC12CC3(C)CC(C)(CC(Cn4ncc(-c5ccc(N6CCc7cccc(C(=O)Nc8nc9ccccc9s8)c7C6)nc5C(=O)O)c4C)(C3)C1)C2", "test system": "anaesthetised male beagle dogs", "conditions": "intravenous bolus, 0.03 mg/kg, 15 min", "how to read": "reference: baseline", "quantity": "systemic vascular resistance change", "value": "-9%"}
{"SMILES": "NCCONC(=O)[C@@H]1CC[C@@H]2CN1C(=O)N2OS(=O)(=O)O", "test system": "human male, urine", "conditions": "intravenous infusion, 2 g single dose", "quantity": "amount excreted in urine (0-24 h)", "value": "1530 mg"}
{"SMILES": "CC(C)(C(=O)N1CCOc2c(C#N)cncc2C1)C(F)F", "assay": "item: eye disorders", "test system": "healthy humans, both sexes", "conditions": "oral, 20 mg single dose", "quantity": "subjects with TEAE", "value": "0%"}
{"SMILES": "CCN1/C(=C/C(C)=O)Sc2ccc(F)cc21", "test system": "cynomolgus monkey", "conditions": "oral, 100 mg/kg, 4 h post-dose", "how to read": "reference: pre-dose", "quantity": "heart rate change", "value": "103 ± 26.7%"}
{"SMILES": "Cc1ccc([C@@H]2O[C@H](CO)[C@@H](O)[C@H](O)[C@H]2O)cc1Cc1ccc(-c2ccc(F)cc2)s1", "test system": "Japanese type 2 diabetes patients", "conditions": "400 mg, day 5, 24 h urine collection", "how to read": "reference: baseline", "quantity": "urinary magnesium excretion change", "value": "-6.59 mg"}
{"SMILES": "CNC(=O)c1ccccc1Nc1cc(Nc2ccc(N3CCOCC3)cc2OC)ncc1C(F)(F)F", "test system": "Capmul MCM", "conditions": "24 h, 25 °C", "quantity": "solubility", "value": "7840 µg/mL"}
{"SMILES": "CCN1CCN(Cc2ccc(Nc3ncc(F)c(-c4cc(F)c5nc(C)n(C(C)C)c5c4)n3)nc2)CC1", "test system": "healthy human, fasted, plasma", "conditions": "oral, 200 mg, 2 x 100 mg capsules", "quantity": "Vss/F", "value": "1830 L"}
{"SMILES": "COc1ncc(-c2nc3c(n2C(C)C)[C@H](c2ccc(Cl)cc2)N(c2cc(Cl)cn(C)c2=O)C3=O)c(OC)n1", "test system": "human patients, plasma", "conditions": "oral, 25 mg, 0-24 h, high-dose arm, cycle 2 day 1", "quantity": "AUC(0-t) geometric mean", "value": "1880 ng·h/mL"}
{"SMILES": "N#Cc1ccc2c(c1)[C@H]1CCCN(C(=O)c3ccc4[nH]cnc4c3)[C@H]1C2", "test system": "human males", "conditions": "240 mg, end of trial", "quantity": "total testosterone level", "value": "12.3 nmol/L"}
{"SMILES": "CC(=O)O[C@H]1C(=O)[C@@]2(C)[C@H]([C@H](OC(=O)c3ccccc3)[C@]3(O)C[C@H](OC(=O)[C@H](O)[C@@H](NC(=O)c4ccccc4)c4ccccc4)C(C)=C1C3(C)C)[C@]1(OC(C)=O)CO[C@@H]1C[C@@H]2O", "assay": "item: Nausea", "test system": "patients with advanced solid tumours", "conditions": "intravenous, dose not given, all grades, possibly related to drug", "quantity": "adverse event incidence", "value": "31%"}
{"SMILES": "O=C(Cc1ccc2ccccc2c1)Nc1cc(C2CCC2)[nH]n1", "test system": "mouse plasma", "conditions": "0.5 ng/mL, -80 °C, freeze-thaw stability, together with: 3 freeze-thaw cycles", "quantity": "accuracy", "value": "104%"}
{"SMILES": "Cn1cncc1C[C@H](NC(=O)CCN)C(=O)O", "assay": "binding, MIDAS equilibrium dialysis LC-MS", "test system": "A2AR-BRIL thermostabilized", "conditions": "concentration not given", "how to read": "reference: no-protein control", "quantity": "log2 fold change", "value": -0.161}
{"SMILES": "c1ccc2c(c1)ccc1ccccc12", "test system": "PDMS-water partitioning", "conditions": "PAH compilation", "how to read": "reference: maximum over minimum K", "quantity": "literature range factor", "value": 6}
{"SMILES": "CCc1cc(C(=O)NC)c2nccc(N3CCc4c(cc(Cn5ccnc5)cc4-c4cn(C)nc4C(F)(F)F)C3=O)c2c1", "test system": "Sprague Dawley rats", "conditions": "oral, 100 mg/kg once daily, 7 days", "quantity": "reticulocyte haemoglobin content", "value": "20.6 ± 0.42 pg"}
{"SMILES": "Cc1cc(-c2nnc(N)nc2-c2ccc(F)cc2)cc(Cl)n1", "assay": "item: Colitis", "test system": "IO-naive colorectal cancer patients", "conditions": "oral, dose not given, treatment-related, all grades", "quantity": "patients with immune-mediated AE", "value": "0%"}
{"SMILES": "Cc1nc(-c2ccc(OCC(C)C)c(C#N)c2)sc1C(=O)O", "test system": "KM mouse, chronic hyperuricaemia model", "conditions": "dose not given, day 21", "quantity": "body weight", "value": "35.2 g and 39.2 g and 43 g and 37.6 g and 32.8 g and 32.4 g"}
{"note": "Some of these lines once more:"}
{"SMILES": "CNC(=O)c1ccccc1Nc1cc(Nc2ccc(N3CCOCC3)cc2OC)ncc1C(F)(F)F", "test system": "Capmul MCM", "conditions": "24 h, 25 °C", "quantity": "solubility", "value": "7840 µg/mL"}
{"SMILES": "CCN1CCN(Cc2ccc(Nc3ncc(F)c(-c4cc(F)c5nc(C)n(C(C)C)c5c4)n3)nc2)CC1", "test system": "healthy human, fasted, plasma", "conditions": "oral, 200 mg, 2 x 100 mg capsules", "quantity": "Vss/F", "value": "1830 L"}
{"SMILES": "COc1ncc(-c2nc3c(n2C(C)C)[C@H](c2ccc(Cl)cc2)N(c2cc(Cl)cn(C)c2=O)C3=O)c(OC)n1", "test system": "human patients, plasma", "conditions": "oral, 25 mg, 0-24 h, high-dose arm, cycle 2 day 1", "quantity": "AUC(0-t) geometric mean", "value": "1880 ng·h/mL"}
{"SMILES": "N#Cc1ccc2c(c1)[C@H]1CCCN(C(=O)c3ccc4[nH]cnc4c3)[C@H]1C2", "test system": "human males", "conditions": "240 mg, end of trial", "quantity": "total testosterone level", "value": "12.3 nmol/L"}
{"SMILES": "CC(=O)O[C@H]1C(=O)[C@@]2(C)[C@H]([C@H](OC(=O)c3ccccc3)[C@]3(O)C[C@H](OC(=O)[C@H](O)[C@@H](NC(=O)c4ccccc4)c4ccccc4)C(C)=C1C3(C)C)[C@]1(OC(C)=O)CO[C@@H]1C[C@@H]2O", "assay": "item: Nausea", "test system": "patients with advanced solid tumours", "conditions": "intravenous, dose not given, all grades, possibly related to drug", "quantity": "adverse event incidence", "value": "31%"}
{"SMILES": "O=C(Cc1ccc2ccccc2c1)Nc1cc(C2CCC2)[nH]n1", "test system": "mouse plasma", "conditions": "0.5 ng/mL, -80 °C, freeze-thaw stability, together with: 3 freeze-thaw cycles", "quantity": "accuracy", "value": "104%"}
